{"data": "Results pooled from the literature", "target": "Tyrosine-protein kinase ZAP-70 (ZAP70, Homo sapiens, UniProt P43403)", "note": "Compare with care: the assays were run in different laboratories. Several values in a cell are separate wells, animals, samples, runs or records."}
{"test": "enzyme activity, inhibitor", "setting": "1 µM", "measurement": "inhibition", "result": "52%", "SMILES": "Cc1nc2c(F)cc(-c3nc(Nc4ccc(CNC(=O)CCCCCCC(=O)NO)cc4)ncc3F)cc2n1C(C)C"}
{"test": "cell-free assay, competition with immobilised ligand", "setting": "10 µM", "measurement": "remaining binding", "result": "99%", "SMILES": "C=C1CCCCCCCCCC(CO)C1=O (stereo not shown)"}
{"test": "cell-free assay, competition with immobilised ligand", "setting": "10 µM", "measurement": "remaining binding", "result": "61%", "SMILES": "CC(C)=CC1OC(C)(C)C2C=C3C(=O)C(Cl)=CC(O)C3C3C(O)C4OC4C(=O)C132 (stereo not shown)"}
{"test": "enzyme activity, inhibitor", "setting": "10 µM", "measurement": "inhibition", "result": "0%", "SMILES": "NC(=O)C[C@H]1CCc2sc3ncnc(O[C@H]4CC[C@H](N5CCOCC5)CC4)c3c21"}
{"test": "kinase activity", "setting": "0.1 µM", "measurement": "inhibition", "result": "32% and 24%", "SMILES": "C=CC(=O)Nc1cccc(-c2cnc3[nH]cc(C(=O)NC(C)(C)C)c3n2)c1"}
{"test": "enzyme activity, inhibitor, FRET", "setting": "1 µM", "measurement": "inhibition", "result": "3%", "SMILES": "C[C@H]1CN(C(=O)c2cn(-c3ccnc(N)n3)c3cc(C#CC4(O)CCCCC4)ccc23)CCN1"}
{"test": "enzyme activity, inhibitor", "setting": "10 µM", "measurement": "activity vs control", "result": "114%", "SMILES": "O=C(Cc1ccc(OCc2ccccc2)cc1)NC1(C(=O)O)CCN(C(=O)c2ccc(-c3cccc(Cl)c3)cc2)CC1"}
{"test": "binding, competition with immobilised ligand", "setting": "10 µM", "measurement": "remaining binding", "result": "93%", "SMILES": "COc1ccc(NC(=O)Nc2ccc3c(c2)C(=O)N(C(C)CO)CC(C)C(CN(C)Cc2ccc4c(c2)OCO4)O3)cc1 (stereo not shown)"}
{"test": "binding, competition with immobilised ligand", "setting": "1 µM", "measurement": "remaining binding", "result": "100%", "SMILES": "CCN1CCN(Cc2ccc(NC(=O)c3ccc(C)c(NC(=O)c4cncc(-c5cnn(C)c5)c4)c3)cc2C(F)(F)F)CC1"}
{"test": "binding, competition with immobilised ligand", "setting": "0.1 µM", "measurement": "remaining binding", "result": "89%", "SMILES": "Cc1cnc2nc1Nc1cccc(c1)COC/C=C/COCc1cc(ccc1OCCN1CCOCC1)N2"}
{"test": "enzyme activity, inhibitor", "setting": "1 µM", "measurement": "inhibition", "result": "4%", "SMILES": "Cc1cccc(O[C@H]2CCC[C@@H](C(C)CNCc3ccncc3)C2)c1 (relative stereo)"}
{"test": "KINOMEscan", "setting": "10 µM", "measurement": "remaining binding", "result": "57%", "SMILES": "CC(=O)N1c2ccc(-c3ccc(CNC(=O)c4cn5cc(-c6cnc(N)nc6)nc(N6CCOCC6)c5n4)cc3)cc2CC[C@@H]1C"}
{"test": "kinase activity", "setting": "0.1 µM, with: ATP at Km", "measurement": "inhibition", "result": "3.5%", "SMILES": "CCn1cc(C(=O)O)c(=O)c2c(N)c(F)c(NC3CCCCC3)cc21"}
{"test": "binding, competition with immobilised ligand", "setting": "1 µM", "measurement": "remaining binding", "result": "100%", "SMILES": "Nc1ncc2c(n1)-c1c([nH]c3ccc(C4=CCOCC4)cc13)CCC2"}
{"test": "cell-free assay, inhibitor", "setting": "1 µM", "measurement": "inhibition", "result": "4.3%", "SMILES": "C=CC(=O)N1Cc2nc(-c3cc(-c4cc(Cl)cnc4Cl)c(F)cc3F)n(-c3ccncn3)c2C1"}
{"test": "binding, competition with immobilised ligand", "setting": "1 µM", "measurement": "remaining binding", "result": "98%", "SMILES": "COc1cc(Nc2nccc(-c3cnn4nc(OC)ccc34)n2)cc(C(F)(F)F)c1"}
{"test": "cell-free assay, competition with immobilised ligand", "setting": "0.5 µM", "measurement": "remaining binding", "result": "61%", "SMILES": "CN1CCN(Cc2ccc(NC(=O)c3cccc(C#Cc4cnc(N)c5ncccc45)c3)cc2C(F)(F)F)CC1"}
{"test": "enzyme activity, inhibitor", "setting": "1 µM", "measurement": "inhibition", "result": "7%", "SMILES": "CN1CC[C@@H](COc2cnc(C#N)cc2-c2ccn3nc(NC(=O)C4CC4)cc3c2)C1"}
{"test": "KinomeScan", "setting": "0.1 µM", "scale": "relative to: untreated", "measurement": "remaining binding", "result": "100%", "SMILES": "CNC1C[S+]2CC[S+]3CC[S+](C1)[Ru-4]321([N]=C=S)[n]2c3ccc(OC)cc3c3c4c(c5cc(F)c[n+]1c5c32)C(=O)NC4=O (stereo not shown)"}
{"note": "Excerpt of the above:"}
{"test": "enzyme activity, inhibitor", "setting": "10 µM", "measurement": "activity vs control", "result": "114%", "SMILES": "O=C(Cc1ccc(OCc2ccccc2)cc1)NC1(C(=O)O)CCN(C(=O)c2ccc(-c3cccc(Cl)c3)cc2)CC1"}
